Results pooled from the literature.
Numbered parts are unrelated; each lists some results of a single study. Substitutions count along the parent as printed.

Study 1
Target: Sal-like protein 4, full length isoform B (SALL4, Homo sapiens, UniProt Q9UJQ4-2, residues 1-616)
Method: universal PBM
Molecule type: double-stranded DNA, one strand shown
Medium: in vitro
Tested at: not given
Setting: 8-mer, flanks averaged, mean of replicates
Direction: higher = stronger binding
The E-score of `AAAAAGTG` is reported as 0.173.
The E-score of `TAAGGAGA` is reported as 0.0828.
`CCTAGGCA` has an E-score of -0.0834.
With `CAGACCAG` the E-score was -0.182.
`CACTCTGG` gave an E-score of -0.192.
`ACTCGAGA` has an E-score of 0.022.
`ATCAGCCC` has an E-score of -0.101.
With `AAAAAGGT` the E-score was 0.0179.
The E-score of `ATCCCGGA` is reported as -0.273.
`AGTGACCC` has an E-score of -0.342.
The E-score of `CCGCAATA` is reported as 0.125.
With `ACACATGC` the E-score was -0.0308.
The E-score of `ACGTAACG` is reported as 0.0191.
`ATAAGCCC` gave an E-score of -0.0385.
With `AGAGTTTC` the E-score was -0.0798.
`AATTTACA` gave an E-score of 0.342.
For `ATTACACG`, the E-score was 0.16.
With `CGTGTAGA` the E-score was 0.092.
The E-score of `GAAGGTTA` is reported as 0.0967.
With `AATTGTTG` the E-score was 0.208.
`AGGGGGAC` gave an E-score of -0.302.
The E-score of `CGCTACCC` is reported as -0.247.
`CACCTCTA` has an E-score of -0.0394.
With `CAAAACGC` the E-score was -0.00236.
`CCGCTGAA` gave an E-score of -0.0869.

Study 2
Target: ABI1, truncated, D143A, DHFR fusion (Arabidopsis thaliana)
Method: DHFR PCA, deep sequencing
Medium: yeast
Setting: methotrexate growth selection, single substitutions
With: (+)-ABA 200 µM
Reference: wild-type fitted maximum
Direction: higher = stronger binding
Starting sequence: PYL1, truncated, DHFR fusion (Arabidopsis thaliana); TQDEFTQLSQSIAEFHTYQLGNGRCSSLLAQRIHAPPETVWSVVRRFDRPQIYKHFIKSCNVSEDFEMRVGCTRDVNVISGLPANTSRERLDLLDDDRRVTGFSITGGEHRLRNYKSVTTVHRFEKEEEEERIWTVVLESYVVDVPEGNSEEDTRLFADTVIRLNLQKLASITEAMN
For `S27L`, “relative binding score” read 4.94%.
For `F15V`, “relative binding score” read 64.3%.
`G107Q`: “relative binding score” 77.4%.
Under “relative binding score”, `R155N` is recorded as 74.8%.
For `T1V`, “relative binding score” read 103%.
`Y115N` — result for “relative binding score”: -1.89%.
`A35N` — result for “relative binding score”: 22%.
For `S9K`, “relative binding score” read 109%.
`Y18G` — result for “relative binding score”: 80.9%.
`S104C`: “relative binding score” 81.1%.
`V145F` — result for “relative binding score”: 31.1%.
Under “relative binding score”, `L29K` is recorded as 80%.
`S150F`: “relative binding score” 56.3%.

Study 3
Target: Histone acetyltransferase KAT6A, winged helix 1, GST fusion (KAT6A, Homo sapiens, UniProt Q92794, residues 1-85)
Method: protein binding microarray
Molecule type: double-stranded DNA, one strand shown
Medium: in vitro
Tested at: not given
Setting: 8-mer, flanks averaged, mean of 2 arrays, mostly near background
Reference: not given
Direction: higher = stronger binding
Residues (chain): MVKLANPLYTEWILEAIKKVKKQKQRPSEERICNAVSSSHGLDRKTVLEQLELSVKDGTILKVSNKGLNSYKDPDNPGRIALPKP
`CCAAGACG` gave an E-score of 0.0135.
For `AGTTATTC`, the E-score was -0.0767.
With `ACTGATGA` the E-score was -0.206.
`ACATTGCA` has an E-score of -0.119.
For `AGGTAACT`, the E-score was -0.125.
For `CCTCTCGC`, the E-score was 0.0126.
The E-score of `GCACAACA` is reported as -0.131.
For `GCATCAGC`, the E-score was 0.144.
`TCCTATCA` gave an E-score of -0.141.
With `ACTGGGAT` the E-score was -0.23.
For `ATCTAACG`, the E-score was 0.0415.
The E-score of `AACTGCAG` is reported as -0.194.
`GATGCAGA` has an E-score of -0.236.
`GGAAGATA` gave an E-score of -0.072.
With `TAGGATCA` the E-score was -0.219.
`AACTACTA` has an E-score of -0.0456.
The E-score of `ACTAACAG` is reported as -0.0494.
`GTGTACTA` gave an E-score of -0.0258.
The E-score of `GGGACTGA` is reported as -0.0279.
`GCAATCGA` gave an E-score of 0.00342.
`TCCTACCA` gave an E-score of -0.102.
`ATATGAAC` has an E-score of -0.098.
`TATGGTAA` has an E-score of -0.0344.
With `CTCATGTC` the E-score was -0.0201.
The E-score of `ACTCCGAG` is reported as -0.134.

Study 4
Target: CCNB3, cyclin fold, Cln2 fusion (human)
Method: yeast growth competition, sequencing
Medium: yeast
Setting: strong parent motif
Reference: not given
Direction: higher = stronger binding
Starting sequence: RBL2 docking peptide (human); STTRRRLFVENDS
`T3F` — result for “normalised enrichment score”: 0.26.
For `F8M`, “normalised enrichment score” read -0.337.
Under “normalised enrichment score”, `R5P` is recorded as 0.727.
`L7D`: “normalised enrichment score” 0.255.
Under “normalised enrichment score”, `N11K` is recorded as 0.877.
`D12V` — result for “normalised enrichment score”: 0.675.
`E10A` — result for “normalised enrichment score”: 0.455.
Under “normalised enrichment score”, `T3C` is recorded as 2.34.
For `T2Q`, “normalised enrichment score” read 0.737.
Under “normalised enrichment score”, `T2C` is recorded as 0.566.
`T2R` — result for “normalised enrichment score”: 1.14.
`R6M`: “normalised enrichment score” 0.53.
For `N11R`, “normalised enrichment score” read 0.49.
Under “normalised enrichment score”, `L7R` is recorded as 0.227.
`R4E` — result for “normalised enrichment score”: -0.174.

A few entries again (study 1):
`CACCTCTA` has an E-score of -0.0394.
With `CGTGTAGA` the E-score was 0.092.
With `AAAAAGGT` the E-score was 0.0179.
`ATCAGCCC` has an E-score of -0.101.
`AGTGACCC` has an E-score of -0.342.
With `CAAAACGC` the E-score was -0.00236.
For `ATTACACG`, the E-score was 0.16.
The E-score of `ATCCCGGA` is reported as -0.273.
With `AATTGTTG` the E-score was 0.208.
`CCTAGGCA` has an E-score of -0.0834.
The E-score of `ACGTAACG` is reported as 0.0191.
